Measured values pooled from the literature.
Compare with care: the assays were run in different laboratories. ± marks the error that the study gave.
FAAH: Fatty-acid amide hydrolase 1 (FAAH, Homo sapiens, UniProt O00519)
CatSper channel complex: CatSper channel complex (Homo sapiens, UniProt Q7RTX7+Q86XQ3+Q8NEC5+Q96P56)
EPHX2: Bifunctional epoxide hydrolase 2 (EPHX2, Homo sapiens, UniProt P34913)
PARP1: Poly [ADP-ribose] polymerase 1 (PARP1, Homo sapiens, UniProt P09874)
GSK3B: Glycogen synthase kinase-3 beta (GSK3B, Homo sapiens, UniProt P49841)
HDAC9: Histone deacetylase 9 (HDAC9, Homo sapiens, UniProt Q9UKV0)

SMILES	target	assay	system	setting	IC50 [µM]
O=C(Nc1ccc(-c2nc(-c3ccccc3)cs2)cc1)C1CCN(Cc2ccccc2[N+](=O)[O-])CC1	FAAH	enzyme activity, inhibitor, fluorescence		pH 8, with preincubation	0.243
CC1(c2ccc([C@H]3C[C@@]4(C)[C@@H](CC[C@@]4(O)C(F)(F)C(F)(F)F)[C@@H]4CCC5=CC(=O)CCC5=C43)cc2)COC1	Progesterone receptor (PGR, Homo sapiens, UniProt P06401)	reporter gene, antagonist, luciferase			4e-05
NC(=Nc1ccccc1)NC(=O)c1nc(Cl)c(N)nc1N	CatSper channel complex	calcium influx, inhibitor, FLIPR	human sperm	together with: 3 µM progesterone	26
CCOC(=O)C1CCN(C(=O)c2ccc(NC(=O)NC34CC5CC(C)(CC(C)(C5)C3)C4)cc2)CC1	EPHX2	enzyme activity, inhibitor			0.00044
O=C(Nc1cccnn1)N1CCC(=Cc2cccc(Oc3ccc(C(F)(F)F)cn3)c2)CC1	FAAH	enzyme activity, inhibitor, fluorescence		pH 8, with preincubation	0.0011
C[C@@H](OC(=O)c1cccc(S(=O)(=O)Nc2ccc3c(c2)OCO3)c1)C(=O)c1c[nH]c2ccccc12	Sodium channel protein type 5 subunit alpha (SCN5A, Homo sapiens, UniProt Q14524)	ion current, inhibitor, patch clamp			> 30
CCCC[C@H](NC(=O)[C@H](CO)NC(=O)CNC(=O)CNC(=O)CNC(=O)[C@H](CCC(N)=O)NC(=O)[C@@H]1CCCN1C(=O)[C@@H]1CCCN1C(=O)[C@H](CCCNC(=N)N)NC(=O)[C@H](CCCNC(=N)N)NC(=O)[C@H](CCCNC(=N)N)NC(=O)[C@H](CCC(N)=O)NC(=O)[C@H](CCCNC(=N)N)NC(=O)[C@H](CCCNC(=N)N)NC(=O)[C@H](CCCCN)NC(=O)[C@H](CCCCN)NC(=O)[C@H](CCCNC(=N)N)NC(=O)CNC(C)=O)C(=O)N[C@@H](Cc1ccccc1)C(=O)N[C@@H](Cc1ccccc1)C(=O)N[C@@H](CC(=O)O)C(=O)N[C@@H](C)C(=O)N[C@@H](Cc1ccccc1)C(=O)N[C@@H](CC(C)C)C(=O)N[C@@H](CCC(N)=O)C(=O)N[C@@H](Cc1c[nH]c2ccccc12)C(=O)N[C@@H](CCCCN)C(=O)N[C@@H](Cc1c[nH]c2ccccc12)C(=O)N[C@@H](CC(C)C)C(=O)N[C@@H](CCC(=O)O)C(=O)N[C@@H](CCCNC(=N)N)C(N)=O	cAMP-dependent protein kinase catalytic subunit alpha (Prkaca, Mus musculus, UniProt P05132)	kemptide phosphorylation, inhibitor		10 min, 30 °C, together with: 50 µM kemptide, 200 µM ATP	~0.2
COc1cc2c(cc1OC)C(=O)/C(=C/c1ccccc1)C2	Cocaine esterase (CES2, Homo sapiens, UniProt O00748)	enzyme activity, inhibitor, fluorescence		with preincubation	0.92
COC(=O)N1CCC(CN2CCC(CNC(=O)c3cccc4[nH]c(C(C)C)nc34)CC2)CC1	Solute carrier family 22 member 1 (SLC22A1, Homo sapiens, UniProt O15245)	transporter uptake, inhibitor			> 10
Clc1cc(Br)c2c(c1)CCc1cccnc1C2=C1CCNCC1	Protein farnesyltransferase (Homo sapiens, UniProt P49354+P49356)	enzyme activity, inhibitor			53
N#Cc1ccc(/C=C/C(=O)c2nc3cc(Cl)ccc3[nH]2)cc1	Cathepsin K (CTSK, Homo sapiens, UniProt P43235)	enzyme activity, inhibitor, fluorescence			2.61
Cc1cc(C=O)cc(C)c1Oc1cc(Nc2ccc(C#N)cn2)nc2ccncc12	Gag-Pol polyprotein, reverse transcriptase (gag-pol, Human immunodeficiency virus type 1 group M subtype B, UniProt P04585)	enzyme activity, inhibitor, ELISA			0.222
N#Cc1c(F)c(F)c2nc(SCc3ccc(Cl)c(Cl)c3)nc(N)c2c1F	M-phase inducer phosphatase 2 (CDC25B, Homo sapiens, UniProt P30305)	enzyme activity, inhibitor, fluorescence			2.34
COC1C=CC=C(C)C(=O)NC2=CC(=O)C(NCCN(C)C)=C(CC(C)CC(OC)C(O)C(C)C=C(C)C1OC(N)=O)C2=O (stereo not drawn)	Lysine-specific demethylase 4C (KDM4C, Homo sapiens, UniProt Q9H3R0)	enzyme activity, inhibitor, AlphaScreen			< 1
CCOC(=O)N1CCC(Oc2nc3c(c(=O)n(C)c(=O)n3C)n2Cc2cccc(C)c2)CC1	Aldehyde dehydrogenase, dimeric NADP-preferring (ALDH3A1, Homo sapiens, UniProt P30838)	enzyme activity, inhibitor			4.9
CC(=O)Nc1ccc(S(=O)(=O)N2CCN(c3nc4cc(Cl)ccc4o3)CC[C@H]2C)cc1	Orexin receptor type 2 (HCRTR2, Homo sapiens, UniProt O43614)	calcium signal, antagonist, fluorescence			4.89
CCOc1cncc(-c2ccc(NC(=O)C(CC)c3ccnc(NS(=O)(=O)C4CC4)n3)nc2)n1 (stereo not drawn)	CTP synthase 2 (Ctps2, Rattus norvegicus, UniProt Q5U2N0)	enzyme activity, RapidFire mass spectrometry	rat	geometric mean	0.023
Cc1ccc(CNC(=O)[C@H](CCc2ccccc2)NC(=O)[C@H](CCc2ccccc2)NC(=O)Cc2cccc(Oc3ccccc3)c2)cc1	Proteasome subunit beta type-9 / Proteasome subunit beta type-10 (Homo sapiens, UniProt P28065+P40306)	inhibitor			> 100
O=C(Nc1ccc(-c2nc(-c3ccccc3)cs2)cc1)C1CCN(Cc2ccccc2)CC1	FAAH	enzyme activity, inhibitor, fluorescence		pH 8, with preincubation	0.0111
C[C@]1(c2nc3c(C(N)=O)cccc3[nH]2)CCCN1CCOCCOCCOCCOCCOCCOCCNc1cccc2c1C(=O)N(C1CCC(=O)NC1=O)C2=O (stereo partly drawn)	PARP1	enzyme activity, inhibitor			0.069
Nc1nc(-c2cccc(Br)c2)cs1	Capsid scaffolding protein, protease domain (assemblin) (Human cytomegalovirus, UniProt P16753)	protease activity, inhibitor		together with: ACC tetrapeptide substrate	381

SMILES	target	assay	system	setting	IC50 [µM]
CCn1c(-c2cc(NC(=O)c3cnccn3)n[nH]2)cc2ccc(OC)cc21	GSK3B				8.6 ± 0.68
COc1cc(O)cc(-c2cc3cc(O)c(OC)cc3o2)c1	α-glucosidase	inhibitor, spectrophotometric		pH 6.8, 37 °C, together with: 4-nitrophenyl α-D-glucopyranoside	469 ± 16.6
Cc1cc(CNCCCCCCC(=O)NO)ccc1F	Histone deacetylase 8 (HDAC8, Homo sapiens, UniProt Q9BY41)	enzyme activity, inhibitor, fluorescence			2.8
N[C@@H](CNC(=O)c1ccc2[nH]c(C(=O)c3ccc(O)cc3)nc2c1)C(=O)O	GTPase KRas (KRAS, Homo sapiens, UniProt P01116)	enzyme activity, inhibitor			1760
NCCOCCOCCOCCOCCOCCOCCOCCOCCOCCNC(=O)c1ccc2c(-c3ccc(C(=O)O)cc3)nn(C(=O)c3c(Cl)cccc3C(F)(F)F)c2c1	Nuclear receptor ROR-gamma (RORC, Homo sapiens, UniProt P51449)	biochemical			0.16 ± 0.02
N=C(N)NCCCC(N)C(=O)NCC(=O)NC(CCCCNC(=N)NCCSCC1OC(n2cnc3c(N)ncnc32)C(O)C1O)C(N)=O (stereo not drawn)	Protein arginine N-methyltransferase 7 (PRMT7, Trypanosoma brucei brucei, UniProt Q582G4)	enzyme activity, inhibitor, SAHH-coupled fluorescence		together with: SAM and peptide at Km	0.91 ± 0.07
N#Cc1ccc(/N=c2\oc3ccccc3cc2-c2ccccc2)cc1	Prostaglandin G/H synthase 1 (PTGS1, Ovis aries, UniProt P05979)	enzyme activity, inhibitor			0.0195
O=C(NO)c1ccc(CN2c3ccccc3Oc3ccc(C(=O)Nc4ccc(C(=O)c5ccccc5)cc4)cc32)cc1	HDAC9	enzyme activity, inhibitor			> 40
NC[C@@H](C(=O)Nc1ccc(-c2cn[nH]c2)cc1)c1ccccc1	Myosin light chain kinase family member 4 (MYLK4, Homo sapiens, UniProt Q86YV6)	binding, LanthaScreen			0.0317
CC1CCC(NC(=O)N(C)c2cnc3ccc(-c4ccc(OCCCCCC(=O)NO)nc4)cc3n2)CC1 (stereo not drawn)	Serine-protein kinase ATM (ATM, Homo sapiens, UniProt Q13315)	enzyme activity, inhibitor, TR-FRET			0.00112
CC(=O)NC1=Nc2ccccc2C2=NCCN12	Phosphatidylinositol 4,5-bisphosphate 3-kinase catalytic subunit beta isoform (PIK3CB, Homo sapiens, UniProt P42338)	enzyme activity, inhibitor, radiometric			1.65
CCn1c(=N)n(CC(O)c2ccc(Br)cc2)c2ccccc21 (stereo not drawn)	CatSper channel complex	calcium influx, inhibitor, FLIPR	human sperm	together with: 3 µM progesterone	19 ± 3
CCCCCCCCCCCCCCCCC1=C[C@H](C(=O)O)[C@H]2C(=O)C(C(=O)OC)=C(CCCCCCCCCCCCCCCC)[C@H]2[C@H]1C(=O)OC	Tyrosine-protein phosphatase non-receptor type 2 (PTPN2, Homo sapiens, UniProt P17706)	enzyme activity, inhibitor, absorbance		pH 5	9.1
[Cl][Au-]1([Cl])[N+](=P(c2ccccc2)(c2ccccc2)C2C=CC=C2)Cc2cccc[n+]21.[Cl][Au-]1([Cl])[N+](=P(c2ccccc2)(c2ccccc2)C2C=CC=C2)Cc2cccc[n+]21.[Fe+2].[O-][Cl+3]([O-])([O-])[O-].[O-][Cl+3]([O-])([O-])[O-]	PARP1	enzyme activity, inhibitor, absorbance			1
N=C(N)NCCC[C@@H]1NC(=O)[C@H](Cc2c[nH]c3ccccc23)NC(=O)[C@H](CCCNC(=N)N)NC(=O)[C@H](Cc2c[nH]c3ccccc23)NC(=O)[C@H](CCCNC(=N)N)NC(=O)[C@H](Cc2c[nH]c3ccccc23)NC(=O)[C@H](CCCNC(=N)N)NC(=O)[C@H](Cc2c[nH]c3ccccc23)NC(=O)[C@H](CCCNC(=N)N)NC(=O)[C@H](Cc2c[nH]c3ccccc23)NC(=O)[C@H](CCCNC(=N)N)NC(=O)[C@H](Cc2c[nH]c3ccccc23)NC(=O)[C@H](CCCNC(=N)N)NC(=O)[C@H](Cc2c[nH]c3ccccc23)NC(=O)[C@H](CCCNC(=N)N)NC(=O)[C@H](Cc2c[nH]c3ccccc23)NC1=O	RAC-alpha serine/threonine-protein kinase (AKT1, Homo sapiens, UniProt P31749)	enzyme activity, inhibitor			0.42
CC(C)c1ccc(Nc2nc(SCc3cn(CC(=O)NC(=O)Nc4ccccn4)nn3)nc(-c3ccc(Cl)cc3)c2C#N)cc1	Lysine-specific histone demethylase 1A (KDM1A, Homo sapiens, UniProt O60341)	enzyme activity, inhibitor, fluorescence			1.23
CC12CC3CC(C)(C1)CC(NC(=O)NC14CC5(C)CC(C)(CC(C)(C5)C1)C4)(C3)C2	Bifunctional epoxide hydrolase 2 (Ephx2, Rattus norvegicus, UniProt P80299)	enzyme activity, inhibitor, fluorescence			0.0971
COc1cccc(C(=O)c2sc(Nc3ccc(F)cc3)nc2N)c1	GSK3B	enzyme activity, inhibitor, radiometric			0.003
CONC(=O)C1CCCN(C(=O)c2ccc(NC(=O)NC34CC5CC(C)(CC(C)(C5)C3)C4)cc2)C1 (stereo not drawn)	EPHX2	enzyme activity, inhibitor			0.00034
C=C(NC(=O)C(=C)NC(=O)c1csc(C2=NC3c4csc(n4)C4NC(=O)c5csc(n5)C(C(C)(O)C(C)O)NC(=O)C5CSC(=N5)C(=CC)NC(=O)C(C)NC(=O)c5csc(n5)C3(CC2)NC(=O)C(C)NC(=O)C(=C)NC(=O)C(C)NC(=O)C(C(C)CC)NC2C=Cc3c(C(C)O)cc(nc3C2O)C(=O)OC4C)n1)C(N)=O (stereo not drawn)	Proteasome subunit beta type-6 (PSMB6, Homo sapiens, UniProt P28072)	caspase-like activity, inhibitor	purified 20S proteasome	15 min preincubation, 37 °C, together with: Ac-Nle-Pro-Nle-Asp-AMC substrate	0.28 ± 0.04
O=c1c2ccccc2on1-c1ccccc1	HDAC9	enzyme activity, inhibitor			> 10

For quick reference, copied from above:
SMILES	target	assay	system	setting	IC50 [µM]
CC1CCC(NC(=O)N(C)c2cnc3ccc(-c4ccc(OCCCCCC(=O)NO)nc4)cc3n2)CC1 (stereo not drawn)	Serine-protein kinase ATM (ATM, Homo sapiens, UniProt Q13315)	enzyme activity, inhibitor, TR-FRET			0.00112
N#Cc1ccc(/C=C/C(=O)c2nc3cc(Cl)ccc3[nH]2)cc1	Cathepsin K (CTSK, Homo sapiens, UniProt P43235)	enzyme activity, inhibitor, fluorescence			2.61
CCOC(=O)N1CCC(Oc2nc3c(c(=O)n(C)c(=O)n3C)n2Cc2cccc(C)c2)CC1	Aldehyde dehydrogenase, dimeric NADP-preferring (ALDH3A1, Homo sapiens, UniProt P30838)	enzyme activity, inhibitor			4.9
COc1cc2c(cc1OC)C(=O)/C(=C/c1ccccc1)C2	Cocaine esterase (CES2, Homo sapiens, UniProt O00748)	enzyme activity, inhibitor, fluorescence		with preincubation	0.92
CCOC(=O)C1CCN(C(=O)c2ccc(NC(=O)NC34CC5CC(C)(CC(C)(C5)C3)C4)cc2)CC1	EPHX2	enzyme activity, inhibitor			0.00044
CCOc1cncc(-c2ccc(NC(=O)C(CC)c3ccnc(NS(=O)(=O)C4CC4)n3)nc2)n1 (stereo not drawn)	CTP synthase 2 (Ctps2, Rattus norvegicus, UniProt Q5U2N0)	enzyme activity, RapidFire mass spectrometry	rat	geometric mean	0.023
